Measured values gathered from unrelated publications.
Parts stem from different laboratories: compare values within a part only.
Sequence of UniProt Q92772 (whole entry, looked up): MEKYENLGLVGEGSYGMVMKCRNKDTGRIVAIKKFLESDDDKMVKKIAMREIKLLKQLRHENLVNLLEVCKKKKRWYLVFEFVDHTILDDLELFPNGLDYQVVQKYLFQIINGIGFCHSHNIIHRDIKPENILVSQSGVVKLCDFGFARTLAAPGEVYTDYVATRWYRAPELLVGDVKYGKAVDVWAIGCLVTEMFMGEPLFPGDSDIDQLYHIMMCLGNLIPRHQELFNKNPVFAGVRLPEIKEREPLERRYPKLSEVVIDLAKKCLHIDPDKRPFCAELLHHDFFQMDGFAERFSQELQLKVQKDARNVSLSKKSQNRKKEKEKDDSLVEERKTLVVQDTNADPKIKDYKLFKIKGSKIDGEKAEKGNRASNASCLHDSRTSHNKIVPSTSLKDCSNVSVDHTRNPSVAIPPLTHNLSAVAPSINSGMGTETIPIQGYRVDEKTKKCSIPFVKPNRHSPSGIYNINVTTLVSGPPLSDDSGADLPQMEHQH
Sequence of UniProt Q6PHR2 (whole entry, looked up): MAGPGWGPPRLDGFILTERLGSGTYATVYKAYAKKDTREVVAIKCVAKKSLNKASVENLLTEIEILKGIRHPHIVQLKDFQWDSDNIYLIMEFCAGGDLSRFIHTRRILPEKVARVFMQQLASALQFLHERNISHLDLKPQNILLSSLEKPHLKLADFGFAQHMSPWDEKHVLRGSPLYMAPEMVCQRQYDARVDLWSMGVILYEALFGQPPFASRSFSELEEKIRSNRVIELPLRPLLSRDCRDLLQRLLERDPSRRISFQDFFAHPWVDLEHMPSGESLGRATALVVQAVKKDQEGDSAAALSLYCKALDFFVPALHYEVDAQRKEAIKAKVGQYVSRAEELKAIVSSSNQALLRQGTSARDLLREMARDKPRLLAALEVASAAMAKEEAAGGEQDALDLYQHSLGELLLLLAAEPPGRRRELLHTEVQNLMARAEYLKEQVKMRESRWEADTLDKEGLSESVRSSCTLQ
Sequence of UniProt P17948 (whole entry, looked up): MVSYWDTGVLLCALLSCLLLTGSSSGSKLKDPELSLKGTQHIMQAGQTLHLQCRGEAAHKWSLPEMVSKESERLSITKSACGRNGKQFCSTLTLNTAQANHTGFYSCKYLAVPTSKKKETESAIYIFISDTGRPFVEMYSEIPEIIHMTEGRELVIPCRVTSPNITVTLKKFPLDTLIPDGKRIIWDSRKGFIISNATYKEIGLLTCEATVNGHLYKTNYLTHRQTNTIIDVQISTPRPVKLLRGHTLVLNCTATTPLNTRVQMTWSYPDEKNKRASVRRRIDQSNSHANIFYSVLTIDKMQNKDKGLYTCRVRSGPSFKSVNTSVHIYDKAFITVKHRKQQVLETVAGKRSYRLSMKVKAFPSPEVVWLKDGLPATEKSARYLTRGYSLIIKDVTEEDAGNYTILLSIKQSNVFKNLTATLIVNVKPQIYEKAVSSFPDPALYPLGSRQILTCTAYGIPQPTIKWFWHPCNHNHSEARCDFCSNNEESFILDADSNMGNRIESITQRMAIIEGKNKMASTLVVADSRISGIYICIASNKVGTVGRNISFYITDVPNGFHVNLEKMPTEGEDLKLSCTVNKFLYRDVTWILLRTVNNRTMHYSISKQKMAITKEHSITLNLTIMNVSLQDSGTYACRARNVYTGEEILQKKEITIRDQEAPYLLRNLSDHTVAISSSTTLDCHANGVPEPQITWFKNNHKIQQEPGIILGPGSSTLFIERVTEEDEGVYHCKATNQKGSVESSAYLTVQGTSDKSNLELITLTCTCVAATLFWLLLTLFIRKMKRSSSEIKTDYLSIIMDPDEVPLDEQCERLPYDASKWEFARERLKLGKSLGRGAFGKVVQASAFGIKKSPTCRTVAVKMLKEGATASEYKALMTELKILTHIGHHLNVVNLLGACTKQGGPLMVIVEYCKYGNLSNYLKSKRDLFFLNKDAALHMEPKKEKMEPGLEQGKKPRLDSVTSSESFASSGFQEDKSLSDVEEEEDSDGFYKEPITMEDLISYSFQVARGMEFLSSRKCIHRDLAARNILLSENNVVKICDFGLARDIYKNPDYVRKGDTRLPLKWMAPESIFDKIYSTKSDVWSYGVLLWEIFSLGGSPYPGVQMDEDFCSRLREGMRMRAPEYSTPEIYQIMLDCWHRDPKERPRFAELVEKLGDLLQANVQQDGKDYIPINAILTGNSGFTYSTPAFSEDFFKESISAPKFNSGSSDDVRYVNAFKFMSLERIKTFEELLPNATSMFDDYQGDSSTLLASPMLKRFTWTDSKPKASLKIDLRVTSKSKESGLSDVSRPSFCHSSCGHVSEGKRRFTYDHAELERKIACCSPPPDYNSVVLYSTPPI
Sequence of UniProt O00444 (whole entry, looked up): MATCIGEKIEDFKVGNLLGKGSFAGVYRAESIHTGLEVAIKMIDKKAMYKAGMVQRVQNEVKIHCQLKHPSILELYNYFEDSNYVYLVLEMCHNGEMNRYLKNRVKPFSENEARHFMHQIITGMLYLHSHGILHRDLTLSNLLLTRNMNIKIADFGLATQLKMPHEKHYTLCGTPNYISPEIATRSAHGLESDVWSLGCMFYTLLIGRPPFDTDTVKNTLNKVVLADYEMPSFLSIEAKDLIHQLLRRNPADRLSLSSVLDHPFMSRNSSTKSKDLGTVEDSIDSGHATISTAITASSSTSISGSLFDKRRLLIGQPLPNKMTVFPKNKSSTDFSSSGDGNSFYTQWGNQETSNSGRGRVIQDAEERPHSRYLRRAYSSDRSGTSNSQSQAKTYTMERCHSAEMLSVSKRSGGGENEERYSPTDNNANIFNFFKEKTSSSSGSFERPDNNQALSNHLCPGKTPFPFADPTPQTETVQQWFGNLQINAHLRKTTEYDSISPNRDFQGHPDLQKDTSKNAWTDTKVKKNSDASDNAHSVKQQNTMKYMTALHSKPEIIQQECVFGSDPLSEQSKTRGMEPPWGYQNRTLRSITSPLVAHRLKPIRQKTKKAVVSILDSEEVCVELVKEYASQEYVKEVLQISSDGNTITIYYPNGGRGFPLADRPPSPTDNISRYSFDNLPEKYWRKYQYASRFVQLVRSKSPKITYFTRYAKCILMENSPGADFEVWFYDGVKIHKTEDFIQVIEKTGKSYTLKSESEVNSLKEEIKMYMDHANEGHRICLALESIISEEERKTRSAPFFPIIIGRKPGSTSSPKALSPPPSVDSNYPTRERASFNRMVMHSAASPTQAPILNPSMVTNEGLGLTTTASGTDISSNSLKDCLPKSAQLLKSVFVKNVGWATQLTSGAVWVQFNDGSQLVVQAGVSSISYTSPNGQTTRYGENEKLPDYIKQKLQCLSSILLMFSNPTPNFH
Sequence of UniProt Q04759 (whole entry, looked up): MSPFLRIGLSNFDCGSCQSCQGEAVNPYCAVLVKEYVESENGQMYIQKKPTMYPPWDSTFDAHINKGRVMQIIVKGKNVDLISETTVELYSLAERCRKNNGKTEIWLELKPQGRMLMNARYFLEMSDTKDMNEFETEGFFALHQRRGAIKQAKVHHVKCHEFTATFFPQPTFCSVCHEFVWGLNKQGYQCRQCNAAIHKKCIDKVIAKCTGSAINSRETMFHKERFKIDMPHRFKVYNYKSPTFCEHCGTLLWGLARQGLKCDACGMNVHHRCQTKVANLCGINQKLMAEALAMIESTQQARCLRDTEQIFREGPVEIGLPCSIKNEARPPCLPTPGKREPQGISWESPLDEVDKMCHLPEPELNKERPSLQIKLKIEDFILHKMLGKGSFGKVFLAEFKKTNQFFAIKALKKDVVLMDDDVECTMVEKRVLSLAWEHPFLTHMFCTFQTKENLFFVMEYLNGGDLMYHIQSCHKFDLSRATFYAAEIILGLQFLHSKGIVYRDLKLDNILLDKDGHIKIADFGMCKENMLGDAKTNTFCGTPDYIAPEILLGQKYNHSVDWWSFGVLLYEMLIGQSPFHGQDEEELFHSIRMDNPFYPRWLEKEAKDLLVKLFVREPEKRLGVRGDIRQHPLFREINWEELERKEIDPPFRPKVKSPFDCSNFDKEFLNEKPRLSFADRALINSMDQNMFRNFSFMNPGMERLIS
Sequence of UniProt Q9NQU5 (whole entry, looked up): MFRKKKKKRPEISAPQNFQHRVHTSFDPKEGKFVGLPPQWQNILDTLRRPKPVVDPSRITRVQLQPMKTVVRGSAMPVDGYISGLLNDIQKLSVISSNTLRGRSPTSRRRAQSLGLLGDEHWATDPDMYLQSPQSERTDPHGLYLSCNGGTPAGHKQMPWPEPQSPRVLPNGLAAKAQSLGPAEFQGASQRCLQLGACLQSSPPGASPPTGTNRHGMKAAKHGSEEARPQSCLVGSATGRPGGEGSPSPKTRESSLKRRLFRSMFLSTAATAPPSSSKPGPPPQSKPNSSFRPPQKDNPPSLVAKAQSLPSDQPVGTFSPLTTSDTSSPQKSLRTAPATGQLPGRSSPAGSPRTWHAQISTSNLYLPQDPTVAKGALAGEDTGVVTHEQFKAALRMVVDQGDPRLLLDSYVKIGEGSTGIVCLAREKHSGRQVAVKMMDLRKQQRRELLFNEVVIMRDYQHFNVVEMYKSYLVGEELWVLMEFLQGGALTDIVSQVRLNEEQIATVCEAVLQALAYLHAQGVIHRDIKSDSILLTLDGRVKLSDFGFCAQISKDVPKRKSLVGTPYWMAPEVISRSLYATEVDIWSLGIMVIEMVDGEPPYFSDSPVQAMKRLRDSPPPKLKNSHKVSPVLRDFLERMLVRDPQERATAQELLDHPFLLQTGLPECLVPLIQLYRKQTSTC
Sequence of UniProt Q9P289 (whole entry, looked up): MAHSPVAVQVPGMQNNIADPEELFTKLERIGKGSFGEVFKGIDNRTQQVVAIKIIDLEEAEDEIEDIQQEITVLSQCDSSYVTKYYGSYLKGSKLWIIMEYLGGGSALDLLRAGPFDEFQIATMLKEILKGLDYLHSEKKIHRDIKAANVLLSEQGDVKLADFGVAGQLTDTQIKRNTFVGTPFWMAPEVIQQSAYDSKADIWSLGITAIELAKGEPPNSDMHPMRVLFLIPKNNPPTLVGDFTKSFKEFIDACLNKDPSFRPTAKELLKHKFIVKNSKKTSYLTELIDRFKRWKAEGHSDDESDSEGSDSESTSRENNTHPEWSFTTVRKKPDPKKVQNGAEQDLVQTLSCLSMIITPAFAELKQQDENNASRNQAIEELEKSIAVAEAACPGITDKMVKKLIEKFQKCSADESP

Block 1
Target: RNA binding protein fox-1 homolog 2, RRM domain, GST-SBP tag (RBFOX2, Homo sapiens, UniProt O43251-10, residues 100-194)
Method: RNA Bind-n-Seq
Form: RNA
Sample: in vitro
Concentration: 365 nM
Notes: natural RNA segment, single round, ends assumed
Reference: no-protein control
Reading: higher = stronger binding
Shared flanks, not repeated: GGGAGUUCUACAGUCCGACGAUC … UGGAAUUCUCGGGUGCCAA
Target sequence (chain): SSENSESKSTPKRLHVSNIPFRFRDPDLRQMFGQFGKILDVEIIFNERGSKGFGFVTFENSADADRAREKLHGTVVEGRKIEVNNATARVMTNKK
| Oligonucleotide | RBNS enrichment (R) |
| --- | --- |
| UGUGUGUGCAGUUCAAUCCCGAGGACUGGAAUUUGGAUCCCACCACACACAUAACAAGCCACAUAUUCUGUAAAAGCCUGAGAGAUUCCAGCCCAGAGAGAUUUGAUGCU | 0.64 |
| AGCUAUUAGUAUAUUUAAAAACUGUUCAAAAGCAAAAGAGAAGGAACAGGAAUGAAAGGAAACCUUCCCUUAACUCUUUCUGCUUCCCAUAGCAGGUCUGGUUCCUGCUC | 0.359 |
| AAACAAUGCUCACCUCACCAAAAUUAUAUUAUUUGCAGUCAUUUGUGAUAACACAAAUUUUAUCGCAAUGGUUAUUAUUUAAUUUGUGGCCACACACUGUGGUUAUCUUU | 0.342 |
| UAAAUGCUAUAUCUGGUAUCCAGAGGCUGGCUGUAAAAAGUUCCUUGGGGUCACUCUAUCUCACAUUUUUUUUGGUUAGCAUUUUAAAAAUGCAAAGCCACAUACUUUGA | 0.253 |
| AUGUUCCUAACAGAUUUUGCUUUUGAAAAAUGCUUGUUACAUGAAUAAUUUGUGGACCAGGGAUUGCUUUUCUGAAGGCAGUAUAGGGAACAUGAAUAUUCAAGAUGAAA | 0.34 |
| AUCUGUGCUUUAAGCUAAGGAAAUAUUGCCUGGUGGGUUGGCUGCCUGGUAUUGGGCAUGGAAAUUUGAAUUGCUGAUUGGUAGAUGGUGUGUCUGGACUUAACUCACGU | 0.573 |
| ACUCAAGGCUUCUUAUUUUUCUUCUUUUCUAAAUGCUCUUGGACAUUAUUGGGCUUGCAGAGUUCCCUUAUUCUGGGGCUACAAUGCUUUUAUCGUUCCAAGCUUCAUCU | 0.472 |
| AAUAGAAACCAGCAAGUGUAUACUGUGAUUUAUUUUAAUGUAUUCUUAAGGACAGAAUGGAAAUUCUUUAAAAAAAAUUUUUUUUCCGACCUUCAAUUCAAGGGGUCAUU | 0.791 |

Block 2
Compound: O=Nc1c(-c2c(O)[nH]c3cc(Br)ccc23)[nH]c2ccccc12
Read-out: enzyme activity
Mode: inhibitor
Concentration: 0.5 µM
Reference: control
| target | remaining activity [%] |
| --- | --- |
| PRKCQ (Homo sapiens, UniProt Q04759) | 105 |
| JAK1 (Homo sapiens, UniProt P23458) | 76.2 |
| PAK6 (Homo sapiens, UniProt Q9NQU5) | 86.3 |
| FLT1 (Homo sapiens, UniProt P17948) | 75.1 |
| PAK1 (Homo sapiens, UniProt Q13153) | 89.8 |

Block 3
Host: human
Sample: microsomes or S9
Concentration: 2 µM
Time: 0.5 h
| Structure (SMILES) | remaining compound |
| --- | --- |
| CC(C)(C)c1ccc(C(O)CCC(=O)N[C@@H]2C=C[C@H](CO)C2)cc1 (stereo partly shown) | 14.3% |
| N#Cc1c(-c2cccs2)cc(=O)[nH]c1SCC(=O)c1ccc(Br)cc1 | 76.2% |
| CN(C(=O)CN1C(=O)COc2cc(Cl)c(Cl)cc21)C(CN1CCCC1)c1ccc(-c2ccnc(Cl)c2)cc1 (stereo not shown) | 90.7% |
| CC1CCc2cc(F)ccc2N1S(=O)(=O)c1cc(Cl)ccc1Cl (stereo not shown) | 92.6% |
| COC(=O)/C(=C(/F)OCC(=O)N(C)c1ccc(F)cc1)c1ccc(OC)cc1 | 17.7% |

Block 4
Compound: C[C@H](c1cccc(C#N)c1)n1cc(Cl)cc(C(N)=O)c1=N
Read-out: cell-free assay
Method: competition with immobilised ligand
Concentration: 1 µM
| target | remaining binding |
| --- | --- |
| CDKL2 (Homo sapiens, UniProt Q92772) | 100% |
| FGFR1 (Homo sapiens, UniProt P11362) | 95% |
| EGFR (Homo sapiens, UniProt P00533, T790M) | 80% |
| FLT3 (Homo sapiens, UniProt P36888, D835V) | 89% |
| MAP2K5 (Homo sapiens, UniProt Q13163) | 100% |
| EGFR (Homo sapiens, UniProt P00533, A750P/del747-749) | 78% |
| Ribosomal protein S6 kinase alpha-5, N-terminal kinase domain (RPS6KA5, Homo sapiens, UniProt O75582) | 92% |
| Tyrosine-protein kinase ABL1, phosphorylated (ABL1, Homo sapiens, UniProt P00519, H396P) | 79% |
| CHUK (Homo sapiens, UniProt O15111) | 100% |
| CAMK2B (Homo sapiens, UniProt Q13554) | 100% |
| SNRK (Homo sapiens, UniProt Q9NRH2) | 100% |
| STK26 (Homo sapiens, UniProt Q9P289) | 88% |
| PLK4 (Homo sapiens, UniProt O00444) | 100% |
| PKN2 (Homo sapiens, UniProt Q16513) | 100% |
| EGFR (Homo sapiens, UniProt P00533, del746-750) | 75% |
| ULK3 (Homo sapiens, UniProt Q6PHR2) | 64% |

Repeated from above (block 2):
| target | remaining activity [%] |
| --- | --- |
| PAK6 (Homo sapiens, UniProt Q9NQU5) | 86.3 |
| PRKCQ (Homo sapiens, UniProt Q04759) | 105 |
| PAK1 (Homo sapiens, UniProt Q13153) | 89.8 |
| JAK1 (Homo sapiens, UniProt P23458) | 76.2 |
| FLT1 (Homo sapiens, UniProt P17948) | 75.1 |
